Experimental data collected from several papers.
Numbered parts are unrelated; each lists some results of a single study.

Sample 1 — method: aptamer microarray, sandwich; form: DNA with 2'F-ANA; sample: in vitro; tested at: 200 nM; added: Cy3 exosite-II aptamer, 400 nM; reading: higher = stronger binding; sequence: GGTTGGTGTGGTTGG
Target: Prothrombin, mature alpha-thrombin (F2, Homo sapiens, UniProt P00734)
Notes: whole 15-mer aptamer, many near background
`2'F-ANA at 2 3 4 5 8 9 12 13 14 15`: “mean fluorescence intensity” 50.2 a.u.
For `2'F-ANA at 1 2 3 4 7 8 12 13 14`, “mean fluorescence intensity” read 93.6 a.u.
For `2'F-ANA at 4 5 6 9 11 12`, “mean fluorescence intensity” read 104 a.u.
`2'F-ANA at 3 5 6 9 11 12 14 15` — result for “mean fluorescence intensity”: 58.4 a.u.
Under “mean fluorescence intensity”, `2'F-ANA at 1 3 4 5 7 9 10 11 13 15` is recorded as 45.1 a.u.
`2'F-ANA at 3 4 6 9 11 13` — result for “mean fluorescence intensity”: 451 a.u.
For `2'F-ANA at 2 3 4 6 7 8 11 15`, “mean fluorescence intensity” read 496 a.u.
`2'F-ANA at 1 3 4 10`: “mean fluorescence intensity” 69.1 a.u.
For `2'F-ANA at 2 3 6 7 8 11 15`, “mean fluorescence intensity” read 603 a.u.
Under “mean fluorescence intensity”, `2'F-ANA at 1 3 6 8 9 11 12 13` is recorded as 344 a.u.
`2'F-ANA at 1 2 4 5 9 10 13` — result for “mean fluorescence intensity”: 44.4 a.u.

Sample 2 — method: RNA Bind-n-Seq; form: RNA; sample: in vitro; tested at: not given; reference: input RNA pool; reading: higher = stronger binding
Target: RING finger protein unkempt homolog, zinc fingers 1-6, GST-SBP tag (UNK, Homo sapiens, UniProt Q9C0B0, residues 30-357)
Sequence of UniProt Q9C0B0 (30-357, looked up): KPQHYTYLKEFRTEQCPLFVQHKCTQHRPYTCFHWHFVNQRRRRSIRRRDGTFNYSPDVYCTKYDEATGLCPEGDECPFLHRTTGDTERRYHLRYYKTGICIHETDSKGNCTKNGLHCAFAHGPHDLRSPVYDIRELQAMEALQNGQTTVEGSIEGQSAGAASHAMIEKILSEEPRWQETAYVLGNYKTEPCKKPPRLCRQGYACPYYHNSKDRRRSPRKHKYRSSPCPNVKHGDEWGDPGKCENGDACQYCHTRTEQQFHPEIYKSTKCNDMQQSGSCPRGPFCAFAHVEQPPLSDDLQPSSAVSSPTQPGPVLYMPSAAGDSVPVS
Notes: RNA with constant flanks, human and mouse sites, ends assumed
For `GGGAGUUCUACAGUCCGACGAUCAUUGUUGAAGCGAAUCCACUUUUAGAAGCAUUUGGAAAUGCAAAGACUGUUCGCAACAAUAAUAGCAGUCGAUUUGGAAAAUUUGUAGAAAUUCAUUUCAAUGAAAAGAGUUCGGUUGUUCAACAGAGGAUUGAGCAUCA`, the bound/input enrichment was 0.274 ratio.
`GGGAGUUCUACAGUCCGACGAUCUUAAGACCCUCGCUCCUGCUGCUAACACAGACCGUUAACCAGAGGAGGCUUCCAUCGUAGCCAUAAUGCCUGUCGUCGUACAGCUCAGUAGCCCGUUCUCUUUCACAGUUCAACGUGUACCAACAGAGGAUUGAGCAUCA` has a bound/input enrichment of 0.299 ratio.
With `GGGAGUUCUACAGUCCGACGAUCUCACCUGGGAGUUGGGGUCCUGCCCACCUGGAGUUUAGCACGCUGGUCGCUCACUUUGCUUUGGUCUGCACACCUGGUGUGUGCAUGUGUAUACUGCUUGUGCCAUCUGUGUACCCCUCUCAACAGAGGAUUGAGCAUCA` the bound/input enrichment was 0.165 ratio.
`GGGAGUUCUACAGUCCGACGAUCCCAGUCCCUGAGCUCCCAGAUUUCUUCCAGGGCAAGCACUUCUUUCUUUACGGGGAGUUCCCUGGGGACGAGCGGCGGAAACUCAUCCGAUACGUCACAGCCUUCAAUGGGGAGCUCGAGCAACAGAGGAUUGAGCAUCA` has a bound/input enrichment of 0.213 ratio.
With `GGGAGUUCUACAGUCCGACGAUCGAACCAUAUAUCCUACCGUUCAUGUUUUACAAUGAUGUUAAGAAGCAGCAACAAAUGGCAGCACUUACAAAAGAAAAGGACCAAUUAUCUCAGUCUAUUGUUAUGUAUAAAAGUUUAUUUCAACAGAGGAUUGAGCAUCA` the bound/input enrichment was 0.32 ratio.

Sample 3 — method: protein binding microarray; form: double-stranded DNA, one strand shown; sample: in vitro; tested at: not given; reference: not given; reading: higher = stronger binding
Target: Histone acetyltransferase KAT6A, winged helix 2, GST fusion (KAT6A, Homo sapiens, UniProt Q92794, residues 85-181)
Notes: 8-mer, flanks averaged, mean of 2 arrays, mostly near background
Construct (chain): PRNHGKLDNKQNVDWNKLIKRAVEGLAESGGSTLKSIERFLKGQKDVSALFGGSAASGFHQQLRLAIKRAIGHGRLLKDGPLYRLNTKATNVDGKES
For `ATTCGAAG`, the E-score was 0.0767.
`AACAGTCC` gave an E-score of -0.188.
`ATCGGCTG` has an E-score of 0.0703.
`ACGACGCT` gave an E-score of -0.131.
With `CGCCATTC` the E-score was 0.0122.
The E-score of `AACGAATG` is reported as 0.0587.
With `CGCTGTTA` the E-score was -0.122.

Further values, each from its own experiment
`PhoQ, residues 284 288 289 292 302 303 SSCCRF` has a fold induction of 18.4 (PhoP, residues 12 14 15 18 19 GHCSL (Escherichia coli, UniProt P23836); Sort-seq, measured: YFP reporter; E. coli; PhoQ-PhoP variant library, added: 10 µM Mg2+; reference: high Mg2+ state, higher = stronger signaling).

For quick reference, copied from above (sample 3):
`ATCGGCTG` has an E-score of 0.0703.
`ACGACGCT` gave an E-score of -0.131.
